Measurements gathered from unrelated publications.
Each numbered part is a random draw from the data of one study; scales do not carry over between parts. Substitutions count along the parent as printed.

Sample 1
Target: Sal-like protein 4, full length isoform B (SALL4, Homo sapiens, UniProt Q9UJQ4-2, residues 1-616)
Method: universal PBM
Form: double-stranded DNA, one strand shown
Matrix: in vitro
Concentration: not given
Notes: 8-mer, flanks averaged, mean of replicates
Reading: higher = stronger binding
Strand	E-score
AAAGCCCG	-0.142
CGCGGACG	-0.235
GTTAAGTA	0.147
GTGCCCAC	-0.236
GGACTCAC	-0.184
ATACCTAA	0.244
ACCACATA	0.195
CATTTTAC	0.333
GGCTCGAC	-0.24
CCCCCCAC	-0.205
GTGGGGGA	-0.0299
AAAATAAA	0.371
GTAACTCA	-0.0695
AAATGCTA	0.243
CAGCATAG	0.0939
CACTTCCC	-0.22
ATTAAGCG	0.135
CAAAGGTG	-0.0319
AACAGCTT	-0.0705
CCCGTGGA	-0.264
AGAGCGCA	-0.228
ACTCAGGG	-0.283
CTGCGGGA	-0.314
CTCGCCAC	-0.191
AAGACCTC	-0.183

Sample 2
Target: Histone acetyltransferase KAT6A, winged helix 1, GST fusion (KAT6A, Homo sapiens, UniProt Q92794, residues 1-85)
Method: protein binding microarray
Form: double-stranded DNA, one strand shown
Matrix: in vitro
Concentration: not given
Notes: 8-mer, flanks averaged, mean of 2 arrays, mostly near background
Baseline: not given
Reading: higher = stronger binding
Target sequence (chain): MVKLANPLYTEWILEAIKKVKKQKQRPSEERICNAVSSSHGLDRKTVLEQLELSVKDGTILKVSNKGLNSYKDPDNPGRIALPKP
Strand	E-score
CAAATGGA	-0.142
CGTAGAGC	0.0773
CCATTGGG	-0.131
AAGAAAGT	-0.089
AAAAATAT	-0.155
AAATAAAA	-0.0629
AGAAGTTC	-0.178
CTGTGGTC	-0.0901
ATTCGATG	-0.143
TACCGAGA	-0.0125
GCGTTCAC	0.107
GGACGACA	-0.106
GACCTATC	-0.0219
ATCAGAAG	-0.019
CACGCTCA	-0.0533
TCAACGGA	0.0244
AGAACGGA	0.0198
ATACCCGA	0.142
CATAAACC	-0.014
TAATTGTA	0.00117
GGCCACTA	0.0316
ACTCATCT	-0.293
GGGCGGCA	0.379
CCAGCGTC	0.0959
GAGGGCTA	-0.121

Sample 3
Target: RNA binding protein fox-1 homolog 2, RRM domain, GST-SBP tag (RBFOX2, Homo sapiens, UniProt O43251-10, residues 100-194)
Method: RNA Bind-n-Seq
Form: RNA
Matrix: in vitro
Concentration: 365 nM
Notes: natural RNA segment, single round, ends assumed
Baseline: no-protein control
Reading: higher = stronger binding
All sequences stand within: GGGAGUUCUACAGUCCGACGAUC … UGGAAUUCUCGGGUGCCAA
Target sequence (chain): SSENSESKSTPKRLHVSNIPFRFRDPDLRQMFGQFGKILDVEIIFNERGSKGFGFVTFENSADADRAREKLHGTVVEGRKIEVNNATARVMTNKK
Strand	RBNS enrichment (R)
CCGGAUCACCAGCCCUCUGCUGGUGGUCAUAAAGCACACACAGUUUGUACUUGCUUCCUCUCGACGCCUGCCACAACAGUUUUGCCAGUCACCAAACUCAGAAAAAACUA	0.261
UGAUGUGUAUAAAAUAUGCAAACAUUUCACAAAUGUUCUUUGUCAUUUCAAAAUACUUUAGUAUAUCAAUAUCAGUAGAUACCAGUGGGUGGGAAAGGGUCAUUACAUGA	0.388
UGCCAGAGAACAAGGUGUAUGUUCUUGGGAAGCAGGUCUAUGCCAGUGGGCUGUUUUGCCUUGUUUGUGCUUCUUCAGGACAGAGCAGUCCUGAUGAUACAGUAAUUGAU	4.88
UUAGCCCUCUGGUUUUCCAGCUCAACCUCUGAUAAAGUGGACUGAGAGCCACGCUGCUCAGUCUGUUUCGUCAGCCGACUCAGGUUAUUUUCAGGGAAGGCAUGGAGGCA	0.665
GAACCUGCUGCUUUGUUUUCUGAGAAGAGGUUUGAAGACAUUUUAUUAACAGCUUAAUUUUUCUCUUUUACUCCAUAGGAACUUAUUUUAAUAGUAACAUUAACAACAAG	0.696
UCUGACCUCUACACGUAUGCCACGCUUGUACCCACACACGCGCACACACACAGACUUAUAAUGCAAAUGGAUCUCUGAUCAUAAAGGCCAAAAUUGUGUUCUAUCUCUAC	0.531
CCACUGGCCUACAGUCUUGCUUCUGCAGCACCCACUUUGUCUCCUCAGGUAGUGAUGAAUUAGUUGCUGUCACAAAAGGAGGGAAGUAGCACCCAAAUUAAGUUGCUUAA	0.344
UUCCAAGGGCUGUUCCAGACAACUGCCAACGUCACUGAGGGCCCUGCCCCAGCGGCCCUGGCCCCAGGCUCUAUUAACCUAAAAUGUAGCUCCCUAGCGCUAACCUAGGA	0.228

Sample 4
Target: CCND3, cyclin fold, Cln2 fusion (human)
Method: yeast growth competition, sequencing
Matrix: yeast
Notes: weak parent motif
Baseline: not given
Reading: higher = stronger binding
Starting sequence: RP1L1 docking peptide (human); TLGLGPLSFTLED
Substitution	normalised enrichment score
D13A	-0.442
G3A	-0.532
L7A	-0.205
L2A	-0.423
P6A	-0.516
F9A	-0.142
T10A	-0.0793

Sample 5
Target: ABI1, truncated, D143A, DHFR fusion (Arabidopsis thaliana)
Method: DHFR PCA, deep sequencing
Matrix: yeast
Notes: methotrexate growth selection, single substitutions
Added: (+)-ABA 0.39 µM
Baseline: wild-type fitted maximum
Reading: higher = stronger binding
Starting sequence: PYL1, truncated, DHFR fusion (Arabidopsis thaliana); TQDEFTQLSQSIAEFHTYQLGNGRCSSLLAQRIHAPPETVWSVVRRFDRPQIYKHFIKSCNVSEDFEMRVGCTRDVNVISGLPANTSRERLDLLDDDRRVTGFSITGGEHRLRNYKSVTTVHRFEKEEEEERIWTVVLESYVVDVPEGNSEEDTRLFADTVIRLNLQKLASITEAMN
Substitution	relative binding score [%]
T120F	-7.16
L164W	16.2
T39I	52.3
E4Q	24.2
S104K	-8.46
L138W	1.64
R132P	55
S11C	43
R98N	23.4
T154F	-43.5
R111Q	-8.94
S140H	9.29
E174V	-0.411
V161P	-1.11
I133G	61.5
G102V	-2.52
N61F	41.5
L164I	7.16
R90L	-1.31
K126L	41.5

For quick reference, copied from above (sample 5):
Substitution	relative binding score [%]
S140H	9.29
L164I	7.16
V161P	-1.11
L164W	16.2
E174V	-0.411
R90L	-1.31
S104K	-8.46
T39I	52.3
T154F	-43.5
